Measurements pooled from the literature.
Protocols differ between the studies behind these lines. Several values in a cell are separate wells, animals, samples, runs or records. Numbers after ± are the reported error.

Compound | assay | test system | conditions | scale | quantity | result
Cc1cc(-c2nccc3c2ccn3CC(=O)Nc2ccc(-c3cnccn3)cn2)ccn1 | – | human | 15 mg once daily, multiple ascending dose | – | subjects with infections | 11.1%
O=C1NC(=O)/C(=C/c2ccc3ncnc(N4CCC(F)(F)CC4)c3n2)S1 | – | NSG mice | dose not given, day 3 | – | body weight | 16.8 g and 17.6 g and 17.3 g and 18.7 g
CCc1cc2c(cc1CC)CC(NC[C@H](O)c1ccc(O)c3[nH]c(=O)ccc13)C2 | equilibrium dialysis | rat, plasma | – | – | fraction unbound | 0.078
Cc1ccc([C@@H]2O[C@H](CO)[C@@H](O)[C@H](O)[C@H]2O)cc1Cc1ccc(-c2ccc(F)cc2)s1 | – | Japanese type 2 diabetes patients | 100 mg, day 2, 24 h urine collection | baseline: baseline | urinary potassium excretion change | -8.5 mEq
CC(C)(C(=O)N1CCOc2c(C#N)cncc2C1)C(F)F | refers to: blood creatine phosphokinase increased | healthy humans, both sexes | oral, 30 mg single dose | – | subjects with TEAE | 0%
CCCCCCCOc1ccc(CCC(N)(CO)CO)cc1C(F)(F)F.Cl | – | healthy men | oral, 0.75 mg, day 21 | – | renal clearance | 0.198 mL/min
COc1nnc2ccc(N3CCC(c4ccc(OCCN5CCN(C)C(=O)[C@H]5C)cc4)CC3)nn12 | – | human, plasma | oral, 5 mg once daily, single dose, monotherapy | – | AUClast | 0.0778 µM·h
CCc1c(-c2ccccc2)c(-c2ccccc2)nn1-c1ccccc1-c1cccc(OCC(=O)O)c1 | – | Sprague-Dawley rat | oral, dose not given | – | Clast | 2.64 ng/mL and 1.53 ng/mL and 1.1 ng/mL
O=C(Nc1nc2cccc(-c3ccc(CN4CCS(=O)(=O)CC4)cc3)n2n1)C1CC1 | refers to: lipase increased | human rheumatoid arthritis patients | oral, 75 mg once daily, 4 weeks, regardless of relatedness | – | treatment-emergent adverse events | 0%
CCc1nc(C(N)=O)c(Nc2ccc(N3CCC(N4CCN(C)CC4)CC3)c(OC)c2)nc1NC1CCOCC1 | – | processed mouse plasma | 15 ng/mL, 24 h, 4 °C | – | re-injection stability accuracy | 101%
OC[C@H]1O[C@@H](c2ccc(Cl)c(Cc3ccc(O[C@H]4CCOC4)cc3)c2)[C@H](O)[C@@H](O)[C@@H]1O | – | Japanese type 1 diabetes patients, blood | 25 mg, day 28 | baseline: baseline | change in LDL/HDL ratio | -0.03
COc1cc(N2CCC(N3CCN(C)CC3)CC2)ccc1Nc1ncc(Cl)c(Nc2ccccc2P(C)(C)=O)n1 | – | nude mice, NCI-H3122 xenograft | intraperitoneal, 10 mg/kg every other day, day 9 | – | body weight | 23.7 g and 23.1 g and 21.8 g and 24.6 g and 24.7 g
CCN1/C(=C/C(C)=O)Sc2ccc(F)cc21 | – | cynomolgus monkey | oral, 10 mg/kg, 24 h post-dose | – | heart rate | 97 ± 8 beats/min
CC(C)n1c(Nc2cccnc2)nc2cnc(Nc3ccc(N4CCN(C)CC4)cc3)nc21 | refers to: creatine phosphokinase increased | healthy male subjects | oral, 150 mg, study, with: rifampin | – | subjects with adverse event | 14.3%
CC(C)OC(=O)[C@@H](C)N[P@@](=O)(OC[C@H]1O[C@@H](n2ccc(=O)[nH]c2=O)[C@](C)(Cl)[C@@H]1O)Oc1ccccc1 | – | human | oral | baseline: capsule over tablet | lag time increase | 65%
Cc1cc(NC2CCN(C(=O)OC3CCN(C(=O)/C=C/CN(C)C)C3)CC2)n2ncc(C(C)C)c2n1 (stereo not shown) | Phase I dose escalation CTCAE v4.0, refers to: Arthralgia | patients with advanced solid tumours | dose not given, TIW dosing any grade | – | patients with adverse event | 0%
Cn1cc(Nc2nccc(-c3ccc4c(c3)CN(C3COC3)CC[C@H]4NC(=O)c3cn(C(C)(C)C)nn3)n2)cn1 | refers to: class-switched memory B cells | human, clinical trial, whole blood | 150 mg twice daily, follow-up | – | percent change from baseline | -11.6%
CCOc1c([C@H](C)n2nc(C)c3c(N)ncnc32)cc(Cl)c(F)c1[C@@H]1CNC(=O)C1 | refers to: QRS >100 to ≤110 ms | previously treated B-cell malignancy | oral, 10 mg once daily, baseline below thresholds | – | ECG observations | 0%
C=CCn1c(=O)c2cnc(Nc3ccc(N4CCN(C)CC4)cc3)nc2n1-c1ccc2c(n1)[C@@](O)(CC)CC2 | – | female NOD/SCID mouse OVCAR-3 xenograft, plasma | oral, 100 mg/kg once daily, :3 | – | Cmax | 6480 ng/mL
CO[C@@H]1[C@H](OC(=O)N2CC(CCN3CCOCC3)C2)CC[C@]2(CO2)[C@H]1[C@@]1(C)O[C@@H]1CC=C(C)C | – | humans | subcutaneous, 0.6 mg twice weekly for 4 weeks, day 28 | baseline: baseline | heart rate | 0.1 ± 5.8 beats/min
O=C(Nc1c2c(cc3c1CCC3)CCC2)NS(=O)(=O)/C=C/c1nccs1 | – | mouse liver microsomes | 1 µM, 30 min, with: NADPH | – | metabolized fraction | 3.68%
Oc1ccc(/C=C/c2cc(O)cc(O)c2)cc1 | – | rat, azoxymethane-injected, blood at sacrifice | 100 mg/kg | – | creatinine | 0.38 mg/dL and 0.29 mg/dL and 0.3 mg/dL
C=CCN1CC(=O)N2[C@@H](Cc3ccc(O)cc3F)C(=O)N(Cc3cccc(N4CC(N5CCN(CC)CC5)C4)n3)C[C@@H]2N1C(=O)NCc1ccccc1 | refers to: Nausea | advanced solid tumour patients | oral, 100 mg twice daily, expansion part, grade ≥3 | – | treatment-related adverse events | 0%
Cc1cccc(CNC(=O)c2cn(CCNC(=O)c3ccccc3Sc3c([N+](=O)[O-])ncn3C)c3cc4c(cc3c2=O)OC(F)(F)O4)n1 | – | Sprague-Dawley rat, male, whole blood | intramuscular, 3 mg/kg of parent compound | – | AUC(0-t) | 30.6 ± 12 ng·h/mL
Cc1ccc(Sc2ccccc2N2CCNCC2)c(C)c1 | refers to: blood uric acid increased | healthy adult men | oral, 5 mg daily, 12 days | – | participants with TEAE | 16.7%
N#Cc1ccc2c(c1)[C@H]1CCCN(C(=O)c3ccc4[nH]cnc4c3)[C@H]1C2 | – | human | 240 mg, end of trial | – | median ACTH level | 5.8 pmol/L
C[C@@H]1OC(=O)[C@H](Cc2ccccc2)[C@H]1O | aerobic dark soil incubation | soil | geometric mean of 4 soils, persistence endpoint | – | DT50 | 0.57 days
CCN1CCN(Cc2ccc(NC(=O)c3ccc(C)c(NC(=O)c4cncc(-c5cccs5)c4)c3)cc2C(F)(F)F)CC1 | LC-MS/MS | C57BL/6 mouse, plasma | intraperitoneal, 10 mg/kg single dose, 0.5 h | – | mean plasma concentration | 488 ng/mL
